Assay results collected from several papers.
Each line is one published result; not all experiments were run side by side. ± gives the spread as reported. Non-standard residues stand in square brackets, D forms with d. Where no end group is shown, it is not given here. No end group written: not given here. [ ]: non-standard residue; d: D form. *: point of attachment.
B1: eIF4A Q186C/G370C (Saccharomyces cerevisiae, UniProt P10081); Alexa555/Alexa647; sequence looked up; chain MSEGITDIEESQIQTNYDKVVYKFDDMELDENLLRGVFGYGFEEPSAIQQRAIMPIIEGHDVLAQAQSGTGKTGTFSIAALQRIDTSVKAPQALMLAPTRELALQIQKVVMALAFHMDIKVHACIGGTSFVEDAEGLRDAQIVVGTPGRVFDNIQRRRFRTDKIKMFILDEADEMLSSGFKEQIYCIFTLLPPTTQVVLLSATMPNDVLEVTTKFMRNPVRILVKKDELTLEGIKQFYVNVEEEEYKYECLTDLYDSISVTQAVIFCNTRRKVEELTTKLRNDKFTVSAIYSDLPQQERDTIMKEFRSGSSRILISTDLLARGIDVQQVSLVINYDLPANKENYIHRIGRGGRFGRKGVAINFVTNEDVCAMRELEKFYSTQIEELPSDIATLLN
B2: Reln 1948-2662 R2193A/K2194A (Mus musculus, UniProt Q60841); chain DGNNLNNPVLLLDTFDFGPREDNWFFYPGGNIGLYCPYSSKGAPEEDSAMVFVSNEVGEHSITTRDLSVNENTIIQFEINVGCSTDSSSADPVRLEFSRDFGATWHLLLPLCYHSSSLVSSLCSTEHHPSSTYYAGTTQGWRREVVHFGKLHLCGSVRFRWYQGFYPAGSQPVTWAIDNVYIGPQCEEMCYGHGSCINGTKCICDPGYSGPTCKISTKNPDFLKDDFEGQLESDRFLLMSGGKPSAACGILSSGNNLFFNEDGLRMLVTRDLDLSHARFVQFFMRLGCGKGVPDPRSQPVLLQYSLNGGLSWSLLQEFLFSNSSNVGRYIALEMPLKARSGSTRLRWWQPSENGHFYSPWVIDQILIGGNISGNTVLEDDFSTLDSRKWLLHPGGTKMPVCGSTGDALVFIEKASTRYVVTTDIAVNEDSFLQIDFAASCSVTDSCYAIELEYSVDLGLSWHPLVRDCLPTNVECSRYHLQRILVSDTFNKWTRITLPLPSYTRSQATRFRWHQPAPFDKQQTWAIDNVYIGDGCLDMCSGHGRCVQGSCVCDEQWGGLYCDEPETSLPTQLKDNFNRAPSNQNWLTVSGGKLSTVCGAVASGLALHFSGGCSRLLVTVDLNLTNAEFIQFYFMYGCLITPSNRNQGVLLEYSVNGGITWNLLMEIFYDQYSKPGFVNILLPPDAKEIATRFRWWQPRHDGLDQNDWAIDNVLIS
B3: protein (Caulobacter crescentus, UniProt A0A0H3C860); sequence looked up; chain MEPKAALSAIRDFIAPVAPSNAPDLSEGAKVVVGQPEKAVEAETALKAERQLAAEPEKPVDNGPQPGDLRLVIEHDDASGAYVYKTVDRRTGETLQQFPREEILKMRDGPDYESGDVFDGQA
B4: mmoB 1-141 D36C (Methylococcus capsulatus, UniProt P18797); 1,5-IAEDANS label; chain MSVNSNAYDAGIMGLKGKDFADQFFADENQVVHESCTVVLVLKKSDEINTFIEEILLTDYKKNVNPTVNVEDRAGYWWIKANGKIEVDCDEISELLGRQFNVYDFLVDVSSTIGRAYTLGNKFTITSELMGLDRKLEDYHA
B5: ULBP1 29-216 (Homo sapiens, UniProt Q9BZM6); Alexa Fluor 647 label; chain DTHCLCYDFIITPKSRPEPQWCEVQGLVDERPFLHYDCVNHKAKAFASLGKKVNVTKTWEEQTETLRDVVDFLKGQLLDIQVENLIPIEPLTLQARMSCEHEAHGHGRGSWQFLFNGQKFLLFDSNNRKWTALHPGAKKMTEKWEKNRDVTMFFQKISLGDCKMWLEEFLMYWEQMLDPTKPPSLAPG
B6: HSPB6 (Homo sapiens, UniProt O14558); sequence looked up; chain MEIPVPVQPSWLRRASAPLPGLSAPGRLFDQRFGEGLLEAELAALCPTTLAPYYLRAPSVALPVAQVPTDPGHFSVLLDVKHFSPEEIAVKVVGEHVEVHARHEERPDEHGFVAREFHRRYRLPPGVDPAAVTSALSPEGVLSIQAAPASAQAPPPAAAK
B7: MMP9/TIMP1 proenzyme complex 20-707 (Homo sapiens); chain 1 APRQRQSTLVLFPGDLRTNLTDRQLAEEYLYRYGYTRVAEMRGESKSLGPALLLLQKQLSLPETGELDSATLKAMRTPRCGVPDLGRFQTFEGDLKWHHHNITYWIQNYSEDLPRAVIDDAFARAFALWSAVTPLTFTRVYSRDADIVIQFGVAEHGDGYPFDGKDGLLAHAFPPGPGIQGDAHFDDDELWSLGKGVVVPTRFGNADGAACHFPFIFEGRSYSACTTDGRSDGLPWCSTTANYDTDDRFGFCPSERLYTQDGNADGKPCQFPFIFQGQSYSACTTDGRSDGYRWCATTANYDRDKLFGFCPTRADSTVMGGNSAGELCVFPFTFLGKEYSTCTSEGRGDGRLWCATTSNFDSDKKWGFCPDQGYSLFLVAAHEFGHALGLDHSSVPEALMYPMYRFTEGPPLHKDDVNGIRHLYGPRPEPEPRPPTTTTPQPTAPPTVCPTGPPTVHPSERPTAGPTGPPSAGPTGPPTAGPSTATTVPLSPVDDACNVNIFDAIAEIGNQLYLFKDGKYWRFSEGRGSRPQGPFLIADKWPALPRKLDSVFEERLSKKLFFFSGRQVWVYTGASVLGPRRLDKLGLGADVAQVTGALRSGRGKMLLFSGRRLWRFDVKAQMVDPRSASEVDRMFPGVPLDTHDVFQYREKAYFCQDRFYWRVSSRSELNQVDQVGYVTYDILQCPED; chain 2 CTCVPPHPQTAFCNSDLVIRAKFVGTPEVNQTTLYQRYEIKMTKMYKGFQALGDAADIRFVYTPAMESVCGYFHRSHNRSEEFLIAGKLQDGLLHITTCSFVAPWNSLSLAQRRGFTKTYTVGCEECTVFPCLSIPCKLQSGTHCLWTDQLLQGSEKGFQSRHLACLPREPGLCTWQSLRSQIA
B8: MYH7 839-968 (Homo sapiens, UniProt P12883); sequence looked up; chain LLKSAEREKEMASMKEEFTRLKEALEKSEARRKELEEKMVSLLQEKNDLQLQVQAEQDNLADAEERCDQLIKNKIQLEAKVKEMNERLEDEEEMNAELTAKKRKLEDECSELKRDIDDLELTLAKVEKEK
UniProt P52917, sequence (whole entry, looked up): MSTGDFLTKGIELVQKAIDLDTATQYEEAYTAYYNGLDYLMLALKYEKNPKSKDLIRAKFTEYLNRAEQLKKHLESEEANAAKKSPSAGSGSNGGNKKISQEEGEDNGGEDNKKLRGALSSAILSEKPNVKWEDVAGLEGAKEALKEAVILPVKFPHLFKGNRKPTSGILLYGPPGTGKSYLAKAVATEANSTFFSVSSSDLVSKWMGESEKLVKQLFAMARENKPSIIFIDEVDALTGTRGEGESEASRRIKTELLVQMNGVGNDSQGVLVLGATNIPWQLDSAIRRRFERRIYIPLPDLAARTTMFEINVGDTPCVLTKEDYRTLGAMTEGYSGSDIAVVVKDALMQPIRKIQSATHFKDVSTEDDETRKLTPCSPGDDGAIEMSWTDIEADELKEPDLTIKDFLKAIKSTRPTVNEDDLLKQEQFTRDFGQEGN
UniProt Q9BXS5, sequence (whole entry, looked up): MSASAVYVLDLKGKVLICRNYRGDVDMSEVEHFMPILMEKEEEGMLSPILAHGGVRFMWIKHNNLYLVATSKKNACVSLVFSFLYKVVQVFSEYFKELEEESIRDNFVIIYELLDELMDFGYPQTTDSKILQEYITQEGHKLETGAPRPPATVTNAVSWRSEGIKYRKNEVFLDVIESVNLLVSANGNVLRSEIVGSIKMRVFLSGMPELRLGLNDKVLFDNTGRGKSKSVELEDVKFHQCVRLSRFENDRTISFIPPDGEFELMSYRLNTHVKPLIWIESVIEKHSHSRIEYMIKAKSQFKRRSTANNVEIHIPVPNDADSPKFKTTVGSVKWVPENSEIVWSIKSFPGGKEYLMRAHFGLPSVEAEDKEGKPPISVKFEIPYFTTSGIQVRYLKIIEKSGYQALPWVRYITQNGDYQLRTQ
UniProt Q9BYN0, sequence (whole entry, looked up): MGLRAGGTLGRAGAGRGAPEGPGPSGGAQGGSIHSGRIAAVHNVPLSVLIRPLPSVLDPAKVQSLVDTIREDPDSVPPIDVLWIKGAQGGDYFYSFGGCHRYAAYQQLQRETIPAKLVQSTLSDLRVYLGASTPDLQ
UniProt Q16539, sequence (whole entry, looked up): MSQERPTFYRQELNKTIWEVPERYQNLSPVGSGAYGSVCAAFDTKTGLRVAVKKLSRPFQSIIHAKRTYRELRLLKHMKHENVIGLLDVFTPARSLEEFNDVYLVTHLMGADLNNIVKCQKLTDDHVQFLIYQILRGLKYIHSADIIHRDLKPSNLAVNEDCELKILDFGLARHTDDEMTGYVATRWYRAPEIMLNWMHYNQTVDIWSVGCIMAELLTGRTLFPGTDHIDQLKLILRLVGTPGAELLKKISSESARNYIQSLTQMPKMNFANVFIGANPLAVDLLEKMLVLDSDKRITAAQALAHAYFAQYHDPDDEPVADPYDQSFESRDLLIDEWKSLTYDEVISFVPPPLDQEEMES
UniProt O95817, sequence (whole entry, looked up): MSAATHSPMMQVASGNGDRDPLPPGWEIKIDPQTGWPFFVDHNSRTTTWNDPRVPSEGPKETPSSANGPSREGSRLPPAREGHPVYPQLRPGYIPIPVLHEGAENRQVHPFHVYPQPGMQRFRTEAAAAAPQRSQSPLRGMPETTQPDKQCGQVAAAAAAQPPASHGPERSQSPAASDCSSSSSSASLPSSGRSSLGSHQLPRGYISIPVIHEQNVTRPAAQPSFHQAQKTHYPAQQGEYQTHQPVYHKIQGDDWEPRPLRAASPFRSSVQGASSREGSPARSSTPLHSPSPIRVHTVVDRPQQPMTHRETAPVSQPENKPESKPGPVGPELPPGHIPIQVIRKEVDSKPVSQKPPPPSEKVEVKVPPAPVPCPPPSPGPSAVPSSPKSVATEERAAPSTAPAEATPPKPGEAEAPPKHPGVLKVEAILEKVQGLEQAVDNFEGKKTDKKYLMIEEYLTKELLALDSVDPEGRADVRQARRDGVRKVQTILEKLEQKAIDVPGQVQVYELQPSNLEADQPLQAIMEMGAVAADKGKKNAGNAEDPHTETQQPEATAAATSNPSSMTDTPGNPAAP
UniProt P22869, sequence (whole entry, looked up): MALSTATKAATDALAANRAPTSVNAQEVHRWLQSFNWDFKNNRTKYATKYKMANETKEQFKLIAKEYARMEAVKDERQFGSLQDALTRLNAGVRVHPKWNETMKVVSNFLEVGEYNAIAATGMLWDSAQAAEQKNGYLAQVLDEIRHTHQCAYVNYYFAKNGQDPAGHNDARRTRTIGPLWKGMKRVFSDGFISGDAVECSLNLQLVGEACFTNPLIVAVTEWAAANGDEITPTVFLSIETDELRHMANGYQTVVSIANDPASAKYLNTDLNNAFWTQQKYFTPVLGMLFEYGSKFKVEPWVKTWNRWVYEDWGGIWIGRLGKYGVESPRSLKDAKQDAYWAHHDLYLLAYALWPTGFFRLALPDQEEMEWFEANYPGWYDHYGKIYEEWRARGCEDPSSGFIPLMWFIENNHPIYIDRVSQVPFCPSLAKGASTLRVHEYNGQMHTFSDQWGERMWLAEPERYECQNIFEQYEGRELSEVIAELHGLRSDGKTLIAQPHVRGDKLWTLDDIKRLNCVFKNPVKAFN
UniProt O14965, sequence (whole entry, looked up): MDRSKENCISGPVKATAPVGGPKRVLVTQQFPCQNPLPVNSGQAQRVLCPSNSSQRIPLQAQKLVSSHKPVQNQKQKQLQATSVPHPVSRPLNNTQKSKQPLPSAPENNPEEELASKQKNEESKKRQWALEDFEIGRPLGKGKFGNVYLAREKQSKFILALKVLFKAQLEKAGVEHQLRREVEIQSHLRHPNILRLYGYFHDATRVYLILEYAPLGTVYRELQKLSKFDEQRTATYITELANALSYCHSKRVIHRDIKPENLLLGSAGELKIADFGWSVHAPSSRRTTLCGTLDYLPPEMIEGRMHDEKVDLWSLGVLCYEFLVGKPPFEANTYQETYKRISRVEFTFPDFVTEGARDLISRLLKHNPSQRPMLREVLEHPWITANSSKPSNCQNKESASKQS
UniProt P34167, sequence (whole entry, looked up): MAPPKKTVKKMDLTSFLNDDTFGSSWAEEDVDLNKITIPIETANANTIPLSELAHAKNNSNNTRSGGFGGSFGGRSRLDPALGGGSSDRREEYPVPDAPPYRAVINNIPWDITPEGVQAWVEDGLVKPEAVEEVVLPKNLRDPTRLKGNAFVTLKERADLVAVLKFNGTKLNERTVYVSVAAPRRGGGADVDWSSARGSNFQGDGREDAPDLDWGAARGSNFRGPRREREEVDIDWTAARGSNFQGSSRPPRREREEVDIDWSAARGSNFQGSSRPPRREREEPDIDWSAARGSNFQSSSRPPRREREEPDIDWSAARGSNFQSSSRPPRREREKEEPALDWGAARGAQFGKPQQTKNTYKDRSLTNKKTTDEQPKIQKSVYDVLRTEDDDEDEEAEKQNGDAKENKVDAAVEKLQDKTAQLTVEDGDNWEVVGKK
UniProt O60656, sequence (whole entry, looked up): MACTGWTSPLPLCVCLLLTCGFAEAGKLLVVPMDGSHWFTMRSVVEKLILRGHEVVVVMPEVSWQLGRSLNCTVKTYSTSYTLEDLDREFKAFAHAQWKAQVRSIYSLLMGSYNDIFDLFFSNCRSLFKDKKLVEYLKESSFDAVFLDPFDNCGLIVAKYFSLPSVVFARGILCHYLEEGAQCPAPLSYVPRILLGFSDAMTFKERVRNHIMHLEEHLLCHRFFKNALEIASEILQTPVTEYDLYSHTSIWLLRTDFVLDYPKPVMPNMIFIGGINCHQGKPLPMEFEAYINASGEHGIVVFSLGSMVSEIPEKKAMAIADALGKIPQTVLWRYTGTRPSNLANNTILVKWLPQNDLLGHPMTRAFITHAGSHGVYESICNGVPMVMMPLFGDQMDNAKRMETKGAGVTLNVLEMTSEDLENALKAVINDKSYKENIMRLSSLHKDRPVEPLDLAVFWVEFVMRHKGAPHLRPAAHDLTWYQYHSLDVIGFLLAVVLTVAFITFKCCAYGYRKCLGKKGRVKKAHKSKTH
UniProt Q9UPP1, sequence (whole entry, looked up): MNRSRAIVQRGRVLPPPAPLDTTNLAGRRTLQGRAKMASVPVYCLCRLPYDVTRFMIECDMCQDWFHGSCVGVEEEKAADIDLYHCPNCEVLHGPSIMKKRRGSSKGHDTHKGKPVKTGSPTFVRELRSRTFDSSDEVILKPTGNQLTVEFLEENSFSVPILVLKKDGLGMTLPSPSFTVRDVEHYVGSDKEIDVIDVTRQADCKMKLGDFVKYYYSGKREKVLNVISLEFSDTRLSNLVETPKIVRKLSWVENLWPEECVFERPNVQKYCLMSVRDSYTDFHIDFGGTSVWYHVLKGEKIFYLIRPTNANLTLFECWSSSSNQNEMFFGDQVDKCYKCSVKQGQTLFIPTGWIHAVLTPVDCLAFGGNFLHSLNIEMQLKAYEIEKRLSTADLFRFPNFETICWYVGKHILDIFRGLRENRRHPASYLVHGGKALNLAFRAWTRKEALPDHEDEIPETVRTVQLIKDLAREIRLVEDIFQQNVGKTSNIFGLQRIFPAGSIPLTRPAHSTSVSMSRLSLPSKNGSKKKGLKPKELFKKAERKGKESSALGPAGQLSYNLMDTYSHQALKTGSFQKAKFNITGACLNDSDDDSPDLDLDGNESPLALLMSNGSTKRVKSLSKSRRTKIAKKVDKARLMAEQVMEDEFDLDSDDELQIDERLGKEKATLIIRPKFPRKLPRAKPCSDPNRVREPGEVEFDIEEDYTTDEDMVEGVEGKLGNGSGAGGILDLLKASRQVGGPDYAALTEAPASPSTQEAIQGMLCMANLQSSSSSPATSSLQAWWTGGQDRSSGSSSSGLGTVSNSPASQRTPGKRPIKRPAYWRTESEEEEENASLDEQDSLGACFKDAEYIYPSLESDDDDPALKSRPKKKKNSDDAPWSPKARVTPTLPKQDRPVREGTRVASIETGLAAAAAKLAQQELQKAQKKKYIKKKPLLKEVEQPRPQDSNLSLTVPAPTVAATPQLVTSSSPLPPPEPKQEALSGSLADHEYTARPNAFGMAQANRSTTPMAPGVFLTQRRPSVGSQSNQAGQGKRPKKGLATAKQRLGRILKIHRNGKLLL

Substance | target or system | test | test system | setting | quantity | value
TREM2 fragment (Homo sapiens) | amyloid beta 42 fibrils (UniProt P05067) | co-sedimentation |  | apparent | Kd | 2.6 ± 0.3 µM
QEECPSDSEEDEG (FURIN residues 768-780 (Homo sapiens)) | AP1M1 158-423 (Homo sapiens, UniProt Q9BXS5) | ITC | peptide | pH 7.4, 12 °C, NaCl 200 mM | Kd | > 300 µM
RRRRRRC / CGSFPPWVQKTEV (peptide; cyclic, disulfide-linked poly-Arg) | DLG4 309-422 (Homo sapiens, UniProt P78352) | SPR | peptide |  | Kd | 0.119 µM
EDFRSGSEAFDLIAQDEEEFNK (CEP192 506-527 (Homo sapiens, UniProt Q8TEP8)) | AURKA kinase domain 123-403, phosphorylated (Homo sapiens, UniProt O14965) | ITC |  |  | Kd | 15.8 µM
B1 (eIF4A Q186C/G370C) | TIF3 (Saccharomyces cerevisiae, UniProt P34167) | single-molecule FRET |  | apparent | Kd | 2.9 ± 1.2 µM
B2 (Reln 1948-2662 R2193A/K2194A) | LRP8 ectodomain, lacking LA4-6 (Homo sapiens) | SPR |  | steady-state affinity | Kd | 0.16 µM
B3 (protein) | popA, Atto-488 label (Caulobacter crescentus, UniProt A0A0H3C8I4) | MST |  |  | Kd | 5.6 ± 0.54 µM
AR[pT][Lys(Me3)]QTARKSTG (histone H3 2-13 (UniProt P68431); pT3/K4me3; pT = C[C@@H](OP(=O)(O)O)[C@H](N)C(=O)O; Lys(Me3) = C[N+](C)(C)CCCC[C@H](N)C(=O)O; sequence looked up) | PHF8 PHD finger 37-106 (Homo sapiens, UniProt Q9UPP1) | NMR titration | peptide |  | Kd | 174 µM
{5‑TAMRA-Ahx}-NLSELDRLLDELN (PXN residues 141-153 L10D; N-terminal TAMRA, aminohexanoyl linker; 5‑TAMRA = CN(C)c1ccc2c(-c3ccc(C(=O)*)cc3C(=O)[O-])c3ccc(N(C)C)cc3[o+]c2c1; Ahx = NCCCCCC(=O)O) | PTK2 892-1052 I936A (Homo sapiens, UniProt Q05397) | fluorescence polarisation | peptide |  | Kd | 70.8 µM
TKDELTKIMDRASKIEQIQKLAKYAIRALNYEDLPTAKDELTKALDLLNSI (VTA1 280-330 S306R (Saccharomyces cerevisiae, UniProt Q06263); sequence looked up) | VPS4 299-415 (Saccharomyces cerevisiae, UniProt P52917) | SPR |  | pH 7.0, NaCl 150 mM, equilibrium fit | Kd | > 1000 µM
CD8A fragment (Homo sapiens) (sequence not shown) | CEACAM5 del42-46 (Homo sapiens) | SPR |  |  | Kd | 0.017 µM
B4 (mmoB 1-141 D36C) | soluble methane monooxygenase hydroxylase α2β2γ2 dimer 1-527 (Methylococcus capsulatus, UniProt P22869) | fluorescence polarisation |  | two-site fit, with: diiron(III) | Kd | 0.55 ± 0.03 µM
IGLQERRGSNVSLTLDM (PTPRR KIM peptide) | MAPK14 unphosphorylated (UniProt Q16539) | ITC | peptide | 25 °C | Kd | 2.84 ± 0.135 µM
S100A4, QSY 35 on amines (Homo sapiens, UniProt P26447) | SRXN1, Alexa 546 label (Homo sapiens, UniProt Q9BYN0) | FRET |  | apparent, with EGTA | Kd | 0.0836 µM
ART[Lys(Me3)]QTARKSTG (histone H3 2-13 (UniProt P68431); K4me3; Lys(Me3) = C[N+](C)(C)CCCC[C@H](N)C(=O)O; sequence looked up) | BIRC5 1-142 (Homo sapiens, UniProt O15392) | ITC | peptide | pH 7.2 | Kd | 87 ± 10 µM
B5 (ULBP1 29-216) | KLRK1/HCST, terbium label on SNAP-tag (Homo sapiens) | TR-FRET | HEK293 TRex | apparent, in cells | Kd | 0.07 µM
B6 (HSPB6) | BAG3 (Homo sapiens, UniProt O95817) | ITC |  | 25 °C, relative values | Kd | 1.2 µM
B7 | LRP1 (Homo sapiens, UniProt Q07954) | SPR |  | 25 °C, bivalent model | Kd | 0.023 µM
B8 (MYH7 839-968) | MYH7/MYL3 sS1 1-808 H251N (Homo sapiens) | MST |  | pH 7.5, KCl 100 mM, Hill fit, with: ADP 500 µM | Kd | 200 ± 30 µM
UGT1A9 (Homo sapiens, UniProt O60656) | Oc1ccc(I)cc1 | steady-state kinetics |  | pH 7.4, 37 °C | Vmax/Km | 148 µL/min/mg

Repeated from above:
Substance | target or system | test | test system | setting | quantity | value
S100A4, QSY 35 on amines (Homo sapiens, UniProt P26447) | SRXN1, Alexa 546 label (Homo sapiens, UniProt Q9BYN0) | FRET |  | apparent, with EGTA | Kd | 0.0836 µM
TREM2 fragment (Homo sapiens) | amyloid beta 42 fibrils (UniProt P05067) | co-sedimentation |  | apparent | Kd | 2.6 ± 0.3 µM
B3 (protein) | popA, Atto-488 label (Caulobacter crescentus, UniProt A0A0H3C8I4) | MST |  |  | Kd | 5.6 ± 0.54 µM
